{"data": "Experimental data gathered from unrelated publications", "note": "Parts stem from different laboratories: compare values within a part only. “And” joins repeats or separate records; there may be more than shown."}
{"data": "Set 1", "target": "RNA binding protein fox-1 homolog 2, RRM domain, GST-SBP tag (RBFOX2, Homo sapiens, UniProt O43251-10, residues 100-194)", "technique": "RNA Bind-n-Seq", "form": "RNA", "medium": "in vitro", "concentration": "365 nM", "setting": "natural RNA segment, single round, ends assumed", "reference": "no-protein control", "reading": "higher = stronger binding", "Residues (chain)": "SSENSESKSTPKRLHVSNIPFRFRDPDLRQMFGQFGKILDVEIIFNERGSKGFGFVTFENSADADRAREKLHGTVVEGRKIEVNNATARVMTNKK"}
{"Sequence": "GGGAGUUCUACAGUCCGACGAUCGGUGGGAGGCUCUGCUUCCUGCUGCCGCUCUGCAGCCUGGACCUGUGGACCCUGGUUGUAAAGAGUAAAUUGUAUCUUAGGAAACCAGUGUCACCUUUUUUUCACCUUUUUGGAAUUCUCGGGUGCCAA", "RBNS enrichment (R)": 0.287}
{"Sequence": "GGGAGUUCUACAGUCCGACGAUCCUCCUCAGCCAGCACCCAGCUUAACCCCUGCCAUCCCAUGCUGGGCCCUCCAGGCCAAGAGUCUCAGCUGGCCGAGAGUCCAGGCCUUGCCUCCCCCGACCGCCAUGGAGUGGAAUUCUCGGGUGCCAA", "RBNS enrichment (R)": 0.563}
{"Sequence": "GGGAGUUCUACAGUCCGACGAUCGCUCAUAGUGUUUGAAAGUGAUGUCCAUUAGUGGGACCGUAGCAUGCUUGCCUCGCAUAGAGUGCAGUUGGUAUUCAUUUACCUAUGUGCGCCAGUUUGGGUUGCCGUUAUGGAAUUCUCGGGUGCCAA", "RBNS enrichment (R)": 6.24}
{"Sequence": "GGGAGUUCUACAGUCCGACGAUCAGGUAGCUCAGGGACCUCCACUGUGGGACCCUUGAGACGCUUCCACUCUGAUUCAGAAACACACUUCUACCUCUUUACUGUUAACUCUUAACAGAUGCAGUCAGCAGUUUUGGAAUUCUCGGGUGCCAA", "RBNS enrichment (R)": 0.273}
{"Sequence": "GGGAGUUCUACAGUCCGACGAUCAGCUCGCGGUGGAAGCCCUGUCCAGCCUGGACGGCGACCUGGCGGGCCGAUACUACGCGCUCAAGAGCAUGACGGAGGCGGAGCAGCAGCAGCUCAUCGACGACCACUUCUGGAAUUCUCGGGUGCCAA", "RBNS enrichment (R)": 1.78}
{"Sequence": "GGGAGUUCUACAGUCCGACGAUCCUACAGAAAGGAAGACAGCUUGGCCCAGCGGGCUGAAGUUCAGAAUUCACUAGGUAGUUGUUGUUGGUUGACUUGGAGGUAGCUGGGUAAUCAACAGCUUUCACUUUAGAUGGAAUUCUCGGGUGCCAA", "RBNS enrichment (R)": 0.459}
{"Sequence": "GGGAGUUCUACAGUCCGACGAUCUUCUCUCCUGGUUUGCAGCUGUCUUCAAAUCCCCCCAUGACCCGCUCUUCCCACUCCUUCAAGUUGCCCUCACAAACCAAUGUGGCAAGACUACUGGACUUGUAUCCAUGUGGAAUUCUCGGGUGCCAA", "RBNS enrichment (R)": 0.652}
{"Sequence": "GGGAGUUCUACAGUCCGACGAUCCUCAGAUACCUCUGUGACCAAAUUUGUCUCCAACCACAUAGCUCAUUUCCUAUAAUGUUAUAUCAUAGGAAGCCCUCACAGAGACACUAACACAGCUAAAGAUCUUCUGAUGGAAUUCUCGGGUGCCAA", "RBNS enrichment (R)": 0.326}
{"data": "Set 2", "target": "Replicase polyprotein 1ab, nsp12 with nsp7/nsp8 (rep, Severe acute respiratory syndrome coronavirus 2, UniProt P0DTD1)", "mode": "inhibitor", "concentration": "20 µM"}
{"Structure (SMILES)": "C=C[C@@]1(C)CC(=O)[C@]2(O)[C@@]3(C)[C@@H](O)CCC(C)(C)[C@@H]3[C@H](O)[C@H](OC(C)=O)[C@@]2(C)O1", "inhibition": "-14% and -17.4%"}
{"Structure (SMILES)": "CCOc1ccc(-n2c([C@@H](C)N(Cc3cccnc3)C(=O)Cc3ccc(OC(F)(F)F)cc3)nc3ncccc3c2=O)cc1", "inhibition": "-6.85%"}
{"Structure (SMILES)": "CC(C)C[C@H](NC(=O)OCC1c2ccccc2-c2ccccc21)C(=O)O", "inhibition": "-0.38% and 3.03%"}
{"Structure (SMILES)": "CN1C(=O)N(c2ccc(C#N)c(C(F)(F)F)c2)C(=O)[C@@]1(CO)c1ccccc1", "inhibition": "2.28%"}
{"Structure (SMILES)": "O=C(c1ccc2nccnc2c1)N1CCCCC1", "inhibition": "-0.92% and -5.72%"}
{"Structure (SMILES)": "CC[C@H]1[C@@H](O)[C@@H]2[C@H](CC[C@]3(C)[C@@H]([C@H](C)CCC(=O)O)CC[C@@H]23)[C@@]2(C)CC[C@@H](O)C[C@@H]12", "inhibition": "4.18%"}
{"Structure (SMILES)": "C[C@H](CCC(=O)O)[C@H]1CC[C@H]2[C@@H]3C(=O)C[C@@H]4CC(=O)CC[C@]4(C)[C@H]3CC(=O)[C@]12C", "inhibition": "2.76%"}
{"Structure (SMILES)": "COc1cc(N2CCC(N3CCN(C)CC3)CC2)ccc1Nc1ncc(Cl)c(Nc2ccccc2P(C)(C)=O)n1", "inhibition": "4.39% and 1.83%"}
{"Structure (SMILES)": "CC(C)N[C@@H]1CCn2c(=O)[nH]c3cccc(c32)[C@H]1O", "inhibition": "11.3% and 2.13%"}
{"Structure (SMILES)": "CC1=C(C(=O)O)N2C(=O)[C@@H](NC(=O)[C@H](N)C3=CCC=CC3)[C@H]2SC1", "inhibition": "10.9% and -1.45%"}
{"Structure (SMILES)": "CCOC(=O)C1=C(N)Oc2ccc(Br)cc2[C@H]1[C@H](C#N)C(=O)OCC", "inhibition": "1.2% and -4.93%"}
{"Structure (SMILES)": "C[C@H](Nc1ncnc2[nH]cnc12)c1cc2ccc(F)cc2nc1-c1ccccn1", "inhibition": "-9.53% and -3.06%"}
{"data": "Set 3", "target": "Replicase polyprotein 1ab, main protease (rep, Severe acute respiratory syndrome coronavirus 2, UniProt P0DTD1)", "observed": "enzyme activity", "mode": "inhibitor", "concentration": "20 µM", "setting": "hit confirmation"}
{"SMILES": "CC(=O)OCC1=C(C(=O)O)N2C(=O)[C@@H](NC(=O)Cc3cccs3)[C@H]2SC1", "inhibition [%]": 4.1}
{"SMILES": "Oc1c(CN2CCCC2)cc(COCc2ccccc2)c2cccnc12", "inhibition [%]": -4.2}
{"SMILES": "O=C(/C=C/c1ccc2ccccc2n1)c1ccncc1", "inhibition [%]": 95}
{"data": "Single results of other studies"}
{"SMILES": "O=C1CCC(N2C(=O)c3ccccc3C2=O)C(=O)N1 (stereo not shown)", "tested on": "HEK-293T", "assay": "pseudovirus infection, FDA-approved drug library screen", "test system": "VSV pseudotyped with SARS-CoV-2 spike", "conditions": "10 µM, 16 h", "how to read": "reference: vehicle-treated", "measurement": "GFP-positive cells", "value": "116%"}
{"SMILES": "CC(C)n1cnc(-c2ccc(F)cc2)c1-c1ncc(C(=O)Nc2ccc(N3CCN(C)CC3)cc2)[nH]1", "assay": "phase 2a clinical trial", "test system": "patients with idiopathic pulmonary fibrosis", "conditions": "30 mg once daily, all grades, SOC neoplasms benign, malignant, unspecified", "measurement": "patients with neoplasm TEAE", "value": "0%"}
